Measured values from different studies.
Each numbered part is a random draw from the data of one study; scales do not carry over between parts. “And” joins repeats or separate records; there may be more than shown.
Chain of UniProt P9WI81 (whole entry, looked up): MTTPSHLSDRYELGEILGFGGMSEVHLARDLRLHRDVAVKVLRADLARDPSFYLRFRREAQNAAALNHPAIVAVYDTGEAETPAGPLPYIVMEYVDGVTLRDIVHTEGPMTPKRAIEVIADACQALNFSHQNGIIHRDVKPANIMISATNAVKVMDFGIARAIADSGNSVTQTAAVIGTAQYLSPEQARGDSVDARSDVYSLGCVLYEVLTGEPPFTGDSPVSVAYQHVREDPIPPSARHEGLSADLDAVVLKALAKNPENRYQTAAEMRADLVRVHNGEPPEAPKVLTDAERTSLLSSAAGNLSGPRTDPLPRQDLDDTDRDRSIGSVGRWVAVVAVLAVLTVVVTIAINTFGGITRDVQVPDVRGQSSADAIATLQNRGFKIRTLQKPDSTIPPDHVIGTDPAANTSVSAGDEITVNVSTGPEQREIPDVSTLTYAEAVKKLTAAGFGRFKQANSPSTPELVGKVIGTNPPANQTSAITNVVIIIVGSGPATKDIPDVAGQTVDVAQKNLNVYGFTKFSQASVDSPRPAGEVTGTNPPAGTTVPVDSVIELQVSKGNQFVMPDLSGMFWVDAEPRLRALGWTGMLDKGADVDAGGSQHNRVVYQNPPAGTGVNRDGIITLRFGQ
Chain of UniProt P61075 (whole entry, looked up): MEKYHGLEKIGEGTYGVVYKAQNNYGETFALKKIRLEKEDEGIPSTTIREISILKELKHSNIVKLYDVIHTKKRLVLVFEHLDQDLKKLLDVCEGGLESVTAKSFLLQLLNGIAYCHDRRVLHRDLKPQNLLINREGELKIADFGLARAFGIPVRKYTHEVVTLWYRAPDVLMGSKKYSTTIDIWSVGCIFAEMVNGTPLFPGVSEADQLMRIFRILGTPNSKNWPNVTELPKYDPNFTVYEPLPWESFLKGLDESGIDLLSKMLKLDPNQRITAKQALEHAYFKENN

Series 1 — endpoint: viability
SMILES: CC[C@@H](C)c1nc2cc(Nc3ccnc4ccc(S(=O)(=O)C(C)C)cc34)ccc2s1.Cl
cell line = L929 RIPK3 knockout; concentration = 6.25 µM; value = 94.8% and 106% and 109% and 96%
cell line = L929; technique = CCK-8; concentration = 50 µM; value = 42.9% and 42.7% and 34.7% and 34.8%
cell line = L929 RIPK3 knockout; concentration = 0.781 µM; value = 103% and 101% and 102%
cell line = L929 RIPK3 knockout; concentration = 6.25 µM; added = zVAD; value = 96.5% and 97.4% and 104% and 106% and 108%
cell line = L929 RIPK3 knockout; concentration = 0.781 µM; added = zVAD; value = 102% and 105% and 98.7%
cell line = L929 RIPK3 knockout; concentration = 50 µM; added = zVAD; value = 35.8% and 37.2% and 39.5% and 36.4%
cell line = L929; technique = CCK-8; concentration = 100 µM; added = zVAD; value = 38% and 39% and 39.1% and 41.5% and 41.9%
cell line = HT-29; observed = necroptosis protection; technique = CCK-8; concentration = 0.156 µM; added = TNF-α SMAC mimetic zVAD; value = 23% and 21.2% and 21.7% and 20% and 12.7%
cell line = L929; technique = CCK-8; concentration = 50 µM; added = zVAD; value = 43.1% and 34.5% and 35% and 33.9%
cell line = L929; technique = CCK-8; concentration = 3.125 µM; added = zVAD; value = 100% and 97.5% and 101% and 103%
cell line = HT-29; observed = necroptosis protection; technique = CCK-8; concentration = 0.625 µM; added = TNF-α SMAC mimetic zVAD; value = 26.3% and 20.4% and 27% and 25.6%
cell line = L929; technique = CCK-8; concentration = 1.563 µM; added = zVAD; value = 99.1% and 97.8% and 95.1% and 96.8% and 94%

Series 2 — observed: enzyme activity; action: inhibitor; technique: radiometric; concentration: 0.5 µM; endpoint: remaining activity
Target: Dual specificity tyrosine-phosphorylation-regulated kinase 1B (DYRK1B, Homo sapiens, UniProt Q9Y463)
Structure (SMILES) = COc1cc2ncnc(Nc3ccc(F)c(Cl)c3)c2cc1OCCCN1CCOCC1; value = 91.9%
Structure (SMILES) = O=C(CCCc1ccc(-c2ccccc2F)cc1)Nc1ccc(O)cc1; value = 108%
Structure (SMILES) = Cc1ccc(NC(=O)c2ccc(CN3CCN(C)CC3)cc2)cc1Nc1nc(-c2cccnc2)cs1; value = 95.7%
Structure (SMILES) = Nc1[nH]nc2nc3ccccc3nc12; value = 96%
Structure (SMILES) = O=C(Nc1cccc(Nc2cc(Nc3cccc(C(F)(F)F)c3)ncn2)c1)C1CC1; value = 105%
Structure (SMILES) = Cn1sc(=O)n(Cc2ccccc2)c1=O; value = 103%
Structure (SMILES) = O=C1Nc2ccc3ncsc3c2/C1=C/c1cnc[nH]1; value = 11.3%
Structure (SMILES) = O=S(=O)(c1cccc2cnccc12)N1CCCNCC1; value = 96.3%
Structure (SMILES) = COc1ccc(OC)c2c(=S)c3ccccc3[nH]c12; value = 107%

Series 3 — cell line: mouse MPNST tumor cells; technique: high-content nuclear imaging; measured: cell number; concentration: 10 µM; time: 12 h; setting: mean of 2 replicates; relative to: plate mean; reading: higher = more cells; endpoint: nuclei count
SMILES = Cc1cc(C(C#N)c2ccc(Cl)cc2)c(Cl)cc1NC(=O)c1cc(I)cc(I)c1O (stereo not shown); value = 1.84 z-score
SMILES = CC(=O)N1N=C(c2ccc(N)cc2)c2cc3c(cc2C[C@H]1C)OCO3; value = 1.15 z-score
SMILES = C[N+]1(C)CCOC(O)(c2ccc(-c3ccc(C4(O)C[N+](C)(C)CCO4)cc3)cc2)C1 (stereo not shown); value = 0.335 z-score

Single results of other studies — observed: cell-free assay; technique: competition with immobilised ligand
CDPK1: Calcium-dependent protein kinase 1 (CDPK1, Plasmodium falciparum, UniProt P62344)
Chain of UniProt P62344 (whole entry, looked up): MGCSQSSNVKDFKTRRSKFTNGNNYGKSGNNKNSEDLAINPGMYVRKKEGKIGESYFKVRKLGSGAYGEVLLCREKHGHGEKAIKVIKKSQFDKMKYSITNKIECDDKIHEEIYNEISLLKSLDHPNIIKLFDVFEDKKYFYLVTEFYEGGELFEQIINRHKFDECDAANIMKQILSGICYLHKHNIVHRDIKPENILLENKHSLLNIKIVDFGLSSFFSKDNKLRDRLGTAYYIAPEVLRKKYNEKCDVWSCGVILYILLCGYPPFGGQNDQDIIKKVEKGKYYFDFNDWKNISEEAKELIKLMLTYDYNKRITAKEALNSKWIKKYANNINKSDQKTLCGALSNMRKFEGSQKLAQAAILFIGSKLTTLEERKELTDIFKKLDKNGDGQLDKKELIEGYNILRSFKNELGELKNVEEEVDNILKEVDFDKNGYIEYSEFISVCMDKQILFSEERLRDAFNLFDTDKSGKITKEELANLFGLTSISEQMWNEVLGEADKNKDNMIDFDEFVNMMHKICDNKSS
Structure (SMILES) = CO[C@H]1CC[C@H](CNc2ccc(S(=O)(=O)NC(=O)c3ccc(N4CCN(CC5=C(c6ccc(Cl)cc6)CC(C)(C)CC5)CC4)cc3Oc3cnc4[nH]ccc4c3)cc2[N+](=O)[O-])CC1; target = CRK2 (Plasmodium falciparum, UniProt P61075); concentration = 1 µM; remaining binding = 100%
Structure (SMILES) = O=c1nc(-c2ccccn2)sc2ccccc12; target = CDPK1; concentration = 1 µM; remaining binding = 77%
Structure (SMILES) = CN([C@@H]1CCc2c(CC(=O)O)c3ccccc3n2C1)S(=O)(=O)c1ccc(F)cc1; target = CDPK1; concentration = 1 µM; remaining binding = 90%
Structure (SMILES) = Nc1c(C(=O)NCc2ccc(C(=O)NCCCC3CCCCC3)cc2)cnn1-c1ccccc1; target = pknB (Mycobacterium tuberculosis, UniProt P9WI81); concentration = 0.1 µM; remaining binding = 100%

Repeated from above (single results of other studies):
Structure (SMILES) = O=c1nc(-c2ccccn2)sc2ccccc12; target = CDPK1; concentration = 1 µM; remaining binding = 77%
Structure (SMILES) = CN([C@@H]1CCc2c(CC(=O)O)c3ccccc3n2C1)S(=O)(=O)c1ccc(F)cc1; target = CDPK1; concentration = 1 µM; remaining binding = 90%
Structure (SMILES) = Nc1c(C(=O)NCc2ccc(C(=O)NCCCC3CCCCC3)cc2)cnn1-c1ccccc1; target = pknB (Mycobacterium tuberculosis, UniProt P9WI81); concentration = 0.1 µM; remaining binding = 100%
